{"data": "Experimental data from different studies", "note": "Compare with care: the assays were run in different laboratories."}
{"Structure (SMILES)": "N=C(N)NCCC[C@@H]1NC(=O)[C@H](CCCNC(=N)N)NC(=O)[C@@H](CCCNC(=N)N)NC(=O)[C@@H](CCCNC(=N)N)NC(=O)[C@@H](C(c2ccccc2)c2ccccc2)NC(=O)[C@@H](Cc2c[nH]c3ccccc23)NC(=O)[C@@H](C(c2ccccc2)c2ccccc2)NC1=O", "organism": "Blastomyces dermatitidis", "system": "BD-2", "MIC": "2 µg/mL"}
{"Structure (SMILES)": "CC1(C)C(NC(=O)C(=NOCC(=O)N2CC3CCCC3C2C(=O)O)c2csc(N)n2)C(=O)N1OS(=O)(=O)O (stereo not drawn)", "organism": "Serratia marcescens", "test": "agar dilution", "system": "ATCC 21074, susceptible", "MIC": "2 µg/mL"}
{"Structure (SMILES)": "COc1ccc(NC(=O)COc2cccc(OCC(C)C)c2)cc1", "organism": "Clavispora lusitaniae", "test": "microbial growth, broth dilution", "system": "MY1396", "MIC": "4 µg/mL"}
{"Structure (SMILES)": "CC1C=CC=CC(C)C2C=CC3CC(C)(O)C(Cl)C(C)C3C2C(=O)C(Cl)(Cl)C(=O)C(C)C(=O)O1 (stereo not drawn)", "organism": "Staphylococcus aureus", "system": "MSSA clinical isolate", "setting": "resistant: PEN,CIP,CLI,DAP,ERY,MXF", "MIC": "0.025 µg/mL"}
{"Structure (SMILES)": "CC1(C)C(NC(=O)C(=NOC2(C(=O)O)CC2)c2csc(N)n2)C(=O)N1OS(=O)(=O)O (stereo not drawn)", "organism": "Klebsiella pneumoniae", "system": "17-29, ESBL", "setting": "compound alone", "MIC": "2 µg/mL"}
{"Structure (SMILES)": "C=C(NC(=O)c1csc(-c2nc3c(cc2O)-c2nc(cs2)C(=O)NC(C(C)O)C(=O)NC(=C(C)OC)c2nc(cs2)C(=O)NC2c4nc(cs4)C(=O)NC(COC(=O)c4c5c6c(cccc6n4O)COC(=O)C(OC4CC(C)(O)C(N(C)C)C(C)O4)C2OC5)c2nc-3cs2)n1)C(N)=O (stereo not drawn)", "organism": "Staphylococcus aureus", "test": "microbial growth", "system": "MRSA", "MIC": "0.0078 µg/mL"}
{"Structure (SMILES)": "O=CCNCCOn1c(=O)n(OCCNCCO)c(=O)n(OCCNCCOn2c(=O)n(OCCNCCO)c(=O)n(OCCNCCO)c2=O)c1=O", "organism": "Aspergillus fumigatus", "test": "microbial growth, broth dilution", "MIC": "8 µg/mL"}
{"Structure (SMILES)": "C=CCO/N=C(\\C(=O)N[C@@H]1C(=O)N(OS(=O)(=O)O)C1(C)C)c1csc(N)n1", "organism": "Serratia marcescens", "test": "agar dilution", "system": "ATCC 21074, susceptible", "MIC": "1 µg/mL"}
{"Structure (SMILES)": "N=C(N)NCCC[C@@H]1NC(=O)[C@@H](CCCNC(=N)N)NC(=O)[C@H](CCCNC(=N)N)NC(=O)[C@@H](C(c2ccccc2)c2ccccc2)NC(=O)[C@@H](C(c2ccccc2)c2ccccc2)NC(=O)[C@@H](C(c2ccccc2)c2ccccc2)NC(=O)[C@@H](CCCNC(=N)N)NC1=O", "organism": "Blastomyces dermatitidis", "system": "BD-1", "MIC": "1 µg/mL"}
{"Structure (SMILES)": "C[C@@H]1C(=O)O[C@@H](C)/C=C/C=C\\[C@@H](C)[C@@H]2C=C[C@@H]3C[C@@]4(C)O[C@H]4[C@@H](C)[C@H]3[C@@H]2C(=O)C(Cl)(Cl)C1=O", "organism": "Staphylococcus aureus", "system": "MSSA clinical isolate", "setting": "PEN CLI ERY TET resistant", "MIC": "0.025 µg/mL"}
{"Structure (SMILES)": "CC1(C)[C@H](NC(=O)/C(=N\\OCc2c(Cl)cccc2Cl)c2nsc(N)n2)C(=O)N1OS(=O)(=O)O", "organism": "Serratia marcescens", "test": "agar dilution", "system": "ATCC 21074, susceptible", "MIC": "8 µg/mL"}
{"Structure (SMILES)": "Cc1c(CN(C)C(=O)/C=C/c2cnc3c(c2)CC(N)C(=O)N3)oc2ccccc12 (stereo not drawn)", "organism": "Klebsiella pneumoniae", "test": "microbial growth, broth dilution", "system": "BAA2473", "MIC": "16 µg/mL"}
{"Structure (SMILES)": "CC1(C)[C@H](NC(=O)/C(=N\\OCC(=O)N2CCC(C(=O)O)C2)c2nsc(N)n2)C(=O)N1OS(=O)(=O)O (stereo partly drawn)", "organism": "Serratia marcescens", "test": "agar dilution", "system": "ATCC 21074, susceptible", "MIC": "4 µg/mL"}
{"Structure (SMILES)": "N=C(N)NCCC[C@@H]1NC(=O)[C@H](CCCNC(=N)N)NC(=O)[C@H](CCCNC(=N)N)NC(=O)[C@@H](CCCNC(=N)N)NC(=O)[C@H](Cc2ccc3ccccc3c2)NC(=O)[C@H](Cc2ccc3ccccc3c2)NC(=O)[C@H](Cc2ccc3ccccc3c2)NC1=O", "organism": "Blastomyces dermatitidis", "system": "BD-2", "MIC": "2 µg/mL"}
{"Structure (SMILES)": "COC1C=COC2(C)Oc3c(C)c(O)c4c(c3C2=O)C2=NC3(CCN(CC(C)C)CC3)NC2=C(NC(=O)C(C)=CC=CC(C)C(O)C(C)C(O)C(C)C(OC(=O)Nc2cscn2)C1C)C4=O (stereo not drawn)", "organism": "Mycobacteroides abscessus", "test": "broth microdilution", "system": "ATCC 19977", "MIC": "0.026 µM"}
{"note": "Excerpt of the above:"}
{"Structure (SMILES)": "CC1C=CC=CC(C)C2C=CC3CC(C)(O)C(Cl)C(C)C3C2C(=O)C(Cl)(Cl)C(=O)C(C)C(=O)O1 (stereo not drawn)", "organism": "Staphylococcus aureus", "system": "MSSA clinical isolate", "setting": "resistant: PEN,CIP,CLI,DAP,ERY,MXF", "MIC": "0.025 µg/mL"}
{"Structure (SMILES)": "N=C(N)NCCC[C@@H]1NC(=O)[C@H](CCCNC(=N)N)NC(=O)[C@@H](CCCNC(=N)N)NC(=O)[C@@H](CCCNC(=N)N)NC(=O)[C@@H](C(c2ccccc2)c2ccccc2)NC(=O)[C@@H](Cc2c[nH]c3ccccc23)NC(=O)[C@@H](C(c2ccccc2)c2ccccc2)NC1=O", "organism": "Blastomyces dermatitidis", "system": "BD-2", "MIC": "2 µg/mL"}
